Measured values from different studies.
Each numbered part is a random draw from the data of one study; scales do not carry over between parts.

Sample 1
Target: POU domain, class 5, transcription factor 1, POU domain (Pou5f1, Mus musculus, UniProt P20263, residues 131-289)
UniProt P20263, sequence (131-289, looked up): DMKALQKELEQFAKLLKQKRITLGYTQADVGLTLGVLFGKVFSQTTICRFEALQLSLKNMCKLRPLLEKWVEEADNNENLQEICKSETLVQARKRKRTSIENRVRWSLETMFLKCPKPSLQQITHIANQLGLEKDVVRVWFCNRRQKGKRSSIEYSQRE
Method: Spec-seq
Form: double-stranded DNA, one strand shown
Sample: in vitro
Concentration: not given
Setting: whole probe, mean of replicates
Baseline: not given
Reading: lower = stronger binding
Under “relative binding energy”, `GAGTCGTCTCGTCAGCACATGCTCATCCGTAGAGCACTCAGGTC` is recorded as 0.449 ln ratio.
For `GAGTCGTCTCGTCAGCACATGCGCTACCGTAGAGCACTCAGGTC`, “relative binding energy” read 0.555 ln ratio.
Under “relative binding energy”, `GAGTCGTCTCGTCAGCACATGCGCGTCCGTAGAGCACTCAGGTC` is recorded as 0.407 ln ratio.

Sample 2
Target: Sal-like protein 4, full length isoform B (SALL4, Homo sapiens, UniProt Q9UJQ4-2, residues 1-616)
Method: universal PBM
Form: double-stranded DNA, one strand shown
Sample: in vitro
Concentration: not given
Setting: 8-mer, flanks averaged, mean of replicates
Reading: higher = stronger binding
For `GCGGTAAC`, the E-score was -0.0228.
`CCAATTGA` gave an E-score of 0.16.
With `CAGTAATG` the E-score was 0.2.

Sample 3
Target: Histone acetyltransferase KAT6A, winged helix 1, GST fusion (KAT6A, Homo sapiens, UniProt Q92794, residues 1-85)
Method: protein binding microarray
Form: double-stranded DNA, one strand shown
Sample: in vitro
Concentration: not given
Setting: 8-mer, flanks averaged, mean of 2 arrays, mostly near background
Baseline: not given
Reading: higher = stronger binding
Construct (chain): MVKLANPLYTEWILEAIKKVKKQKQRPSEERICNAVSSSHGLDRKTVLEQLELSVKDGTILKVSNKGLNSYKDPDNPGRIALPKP
`ACTGGAGG` gave an E-score of -0.0285.
`CGACAGAG` has an E-score of -0.045.
With `GGTCAGAA` the E-score was -0.0425.

Single results of other studies
The fold induction of `PhoQ, residues 284 288 289 292 302 303 DDMDFR` is reported as 0.774 (PhoP, residues 12 14 15 18 19 VQGLL (Escherichia coli, UniProt P23836); Sort-seq, refers to: YFP reporter; E. coli; PhoQ-PhoP variant library, with: 10 µM Mg2+; baseline: high Mg2+ state, higher = stronger signaling).

Some of these lines once more (sample 1):
Under “relative binding energy”, `GAGTCGTCTCGTCAGCACATGCTCATCCGTAGAGCACTCAGGTC` is recorded as 0.449 ln ratio.
